Results from different studies.
A part holds a random share of what one study measured.
UniProt P49759, sequence (whole entry, looked up): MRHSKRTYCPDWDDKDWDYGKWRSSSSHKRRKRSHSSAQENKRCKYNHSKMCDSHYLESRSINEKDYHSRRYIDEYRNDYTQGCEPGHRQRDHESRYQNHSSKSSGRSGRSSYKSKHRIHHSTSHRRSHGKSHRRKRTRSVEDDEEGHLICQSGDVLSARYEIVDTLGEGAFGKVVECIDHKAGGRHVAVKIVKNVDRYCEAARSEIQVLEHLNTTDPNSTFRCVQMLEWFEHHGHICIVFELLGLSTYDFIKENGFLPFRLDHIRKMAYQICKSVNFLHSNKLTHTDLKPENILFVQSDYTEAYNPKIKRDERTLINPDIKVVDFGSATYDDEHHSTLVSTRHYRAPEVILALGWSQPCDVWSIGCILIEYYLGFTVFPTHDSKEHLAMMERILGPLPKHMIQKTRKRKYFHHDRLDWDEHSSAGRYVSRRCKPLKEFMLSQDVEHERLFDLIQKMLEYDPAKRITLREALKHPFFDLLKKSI
UniProt O75385, sequence (whole entry, looked up): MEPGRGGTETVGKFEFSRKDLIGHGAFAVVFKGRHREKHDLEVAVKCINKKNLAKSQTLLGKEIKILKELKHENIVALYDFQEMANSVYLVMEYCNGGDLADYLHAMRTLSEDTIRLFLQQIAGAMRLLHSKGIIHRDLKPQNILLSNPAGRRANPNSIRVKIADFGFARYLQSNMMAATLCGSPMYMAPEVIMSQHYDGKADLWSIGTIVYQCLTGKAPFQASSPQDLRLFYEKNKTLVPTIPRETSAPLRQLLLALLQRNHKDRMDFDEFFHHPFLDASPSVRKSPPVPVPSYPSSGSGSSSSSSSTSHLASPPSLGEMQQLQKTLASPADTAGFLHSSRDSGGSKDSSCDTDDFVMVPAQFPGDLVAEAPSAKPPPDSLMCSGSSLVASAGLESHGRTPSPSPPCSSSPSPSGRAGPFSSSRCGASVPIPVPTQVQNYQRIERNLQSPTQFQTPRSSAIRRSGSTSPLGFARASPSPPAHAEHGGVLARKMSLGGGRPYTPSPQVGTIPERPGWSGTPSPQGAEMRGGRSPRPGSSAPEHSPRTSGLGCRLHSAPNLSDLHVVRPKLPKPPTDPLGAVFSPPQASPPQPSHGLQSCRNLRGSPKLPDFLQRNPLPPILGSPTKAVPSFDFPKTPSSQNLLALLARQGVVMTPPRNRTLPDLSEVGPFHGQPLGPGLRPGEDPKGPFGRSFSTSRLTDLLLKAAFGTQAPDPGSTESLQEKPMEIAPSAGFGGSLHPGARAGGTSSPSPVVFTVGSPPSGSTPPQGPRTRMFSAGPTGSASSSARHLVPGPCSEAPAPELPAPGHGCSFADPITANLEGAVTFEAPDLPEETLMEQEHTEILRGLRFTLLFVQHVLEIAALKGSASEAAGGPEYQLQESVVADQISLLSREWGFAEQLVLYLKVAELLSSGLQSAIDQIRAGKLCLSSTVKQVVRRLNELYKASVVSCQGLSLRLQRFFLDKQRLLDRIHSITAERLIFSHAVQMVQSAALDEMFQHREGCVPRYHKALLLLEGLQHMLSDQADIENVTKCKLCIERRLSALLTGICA
UniProt O75676, sequence (whole entry, looked up): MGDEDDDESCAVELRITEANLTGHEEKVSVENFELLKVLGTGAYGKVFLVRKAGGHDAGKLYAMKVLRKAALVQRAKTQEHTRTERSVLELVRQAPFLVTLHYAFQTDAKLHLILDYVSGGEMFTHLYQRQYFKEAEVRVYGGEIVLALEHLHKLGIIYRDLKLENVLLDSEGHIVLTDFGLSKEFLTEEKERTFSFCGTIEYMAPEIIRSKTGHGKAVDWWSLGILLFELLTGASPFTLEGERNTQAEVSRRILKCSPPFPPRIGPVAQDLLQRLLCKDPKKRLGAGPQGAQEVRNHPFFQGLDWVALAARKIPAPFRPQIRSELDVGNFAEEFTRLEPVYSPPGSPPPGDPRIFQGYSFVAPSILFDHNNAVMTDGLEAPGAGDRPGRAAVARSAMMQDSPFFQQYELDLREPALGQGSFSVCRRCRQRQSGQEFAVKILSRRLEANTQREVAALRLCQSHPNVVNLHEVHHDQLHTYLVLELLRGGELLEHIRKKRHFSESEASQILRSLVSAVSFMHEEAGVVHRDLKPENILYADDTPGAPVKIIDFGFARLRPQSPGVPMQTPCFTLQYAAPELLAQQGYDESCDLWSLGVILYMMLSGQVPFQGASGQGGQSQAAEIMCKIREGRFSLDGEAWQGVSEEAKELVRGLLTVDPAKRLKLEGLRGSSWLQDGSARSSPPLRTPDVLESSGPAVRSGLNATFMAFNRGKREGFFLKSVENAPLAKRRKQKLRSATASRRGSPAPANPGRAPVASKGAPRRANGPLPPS
UniProt Q05513, sequence (whole entry, looked up): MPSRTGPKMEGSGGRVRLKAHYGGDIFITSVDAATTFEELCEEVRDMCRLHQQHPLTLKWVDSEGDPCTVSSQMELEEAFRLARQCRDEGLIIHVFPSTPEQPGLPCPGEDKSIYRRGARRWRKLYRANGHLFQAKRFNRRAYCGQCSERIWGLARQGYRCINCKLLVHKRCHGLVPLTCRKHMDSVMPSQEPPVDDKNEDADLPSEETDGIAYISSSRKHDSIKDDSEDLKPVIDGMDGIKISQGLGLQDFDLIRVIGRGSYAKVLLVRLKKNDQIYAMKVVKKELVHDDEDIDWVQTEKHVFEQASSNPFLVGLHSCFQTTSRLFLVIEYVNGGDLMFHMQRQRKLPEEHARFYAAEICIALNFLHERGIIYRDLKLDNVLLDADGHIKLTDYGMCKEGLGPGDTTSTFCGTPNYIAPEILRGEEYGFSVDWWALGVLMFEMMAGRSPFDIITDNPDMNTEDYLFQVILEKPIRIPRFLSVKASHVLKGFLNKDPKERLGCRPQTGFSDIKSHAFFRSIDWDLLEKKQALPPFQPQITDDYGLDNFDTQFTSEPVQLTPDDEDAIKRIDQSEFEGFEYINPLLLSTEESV
UniProt P29317, sequence (whole entry, looked up): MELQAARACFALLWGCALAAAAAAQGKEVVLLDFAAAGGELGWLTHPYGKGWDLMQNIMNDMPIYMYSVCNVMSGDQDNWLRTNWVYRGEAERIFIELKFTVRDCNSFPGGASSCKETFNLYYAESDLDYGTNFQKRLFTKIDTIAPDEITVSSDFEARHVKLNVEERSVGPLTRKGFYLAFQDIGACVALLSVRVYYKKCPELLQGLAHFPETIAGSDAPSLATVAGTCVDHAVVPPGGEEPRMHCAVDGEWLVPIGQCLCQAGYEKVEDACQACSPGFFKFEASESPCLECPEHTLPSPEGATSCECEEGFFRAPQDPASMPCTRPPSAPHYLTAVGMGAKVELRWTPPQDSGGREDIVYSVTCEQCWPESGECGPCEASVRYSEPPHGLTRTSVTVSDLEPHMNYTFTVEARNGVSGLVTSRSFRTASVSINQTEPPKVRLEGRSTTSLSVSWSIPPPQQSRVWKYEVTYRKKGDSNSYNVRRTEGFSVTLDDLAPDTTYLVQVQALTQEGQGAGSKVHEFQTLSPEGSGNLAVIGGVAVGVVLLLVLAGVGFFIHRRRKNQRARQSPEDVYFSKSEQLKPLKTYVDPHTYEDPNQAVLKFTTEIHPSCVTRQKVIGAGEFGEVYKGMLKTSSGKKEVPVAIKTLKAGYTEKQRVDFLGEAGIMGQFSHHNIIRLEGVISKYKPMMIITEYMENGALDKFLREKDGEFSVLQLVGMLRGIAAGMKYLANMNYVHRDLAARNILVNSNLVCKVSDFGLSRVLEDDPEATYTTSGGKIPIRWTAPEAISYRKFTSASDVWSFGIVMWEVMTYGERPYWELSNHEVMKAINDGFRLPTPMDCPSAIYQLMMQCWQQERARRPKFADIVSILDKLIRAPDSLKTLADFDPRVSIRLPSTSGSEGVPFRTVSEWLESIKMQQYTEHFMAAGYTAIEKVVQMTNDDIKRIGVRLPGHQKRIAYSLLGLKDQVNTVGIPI
UniProt Q06418, sequence (whole entry, looked up): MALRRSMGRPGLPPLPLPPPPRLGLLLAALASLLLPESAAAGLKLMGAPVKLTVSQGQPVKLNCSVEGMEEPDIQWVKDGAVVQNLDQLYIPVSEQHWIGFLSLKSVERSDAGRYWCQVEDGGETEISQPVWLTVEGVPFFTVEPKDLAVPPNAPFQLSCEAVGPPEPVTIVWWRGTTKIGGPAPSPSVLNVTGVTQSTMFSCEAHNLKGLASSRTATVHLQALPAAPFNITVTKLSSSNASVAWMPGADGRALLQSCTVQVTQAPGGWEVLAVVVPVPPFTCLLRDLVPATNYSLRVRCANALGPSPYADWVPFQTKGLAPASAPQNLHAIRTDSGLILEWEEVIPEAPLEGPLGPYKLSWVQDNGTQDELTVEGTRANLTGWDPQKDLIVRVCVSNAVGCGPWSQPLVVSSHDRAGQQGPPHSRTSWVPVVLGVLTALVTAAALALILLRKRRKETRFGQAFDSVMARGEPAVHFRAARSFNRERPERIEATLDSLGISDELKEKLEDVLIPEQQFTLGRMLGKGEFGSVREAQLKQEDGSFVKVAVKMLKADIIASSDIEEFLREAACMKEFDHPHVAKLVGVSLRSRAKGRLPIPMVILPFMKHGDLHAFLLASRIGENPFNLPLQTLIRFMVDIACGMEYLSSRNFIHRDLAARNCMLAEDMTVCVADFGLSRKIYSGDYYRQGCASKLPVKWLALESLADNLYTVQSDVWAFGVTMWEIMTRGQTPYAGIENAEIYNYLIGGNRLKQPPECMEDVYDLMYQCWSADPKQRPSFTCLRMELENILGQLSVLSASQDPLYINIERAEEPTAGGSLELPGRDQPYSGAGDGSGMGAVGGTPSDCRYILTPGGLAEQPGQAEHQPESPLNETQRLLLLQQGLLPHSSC

Set 1 — host: human; medium: microsomes or S9; concentration: 2 µM; time: 0.5 h
Compound	remaining compound
CC(=O)N[C@@H]1CN(C(=O)c2nc3cc(C)ccn3c2F)C[C@H]1c1ccc(C)o1	82.6%
CC1(C)C=C(N(Cc2ncc[nH]2)c2ccc(Cl)c(Cl)c2)c2ccnc(Br)c2O1	3.6%
Cc1ccsc1-c1cn(C(C(=O)N(C)C)c2ccccc2)nn1 (stereo not drawn)	67.8%
C1=Cn2nc(/C=C/c3cccs3)nc2-c2ccccc2O1	25.1%
O=C(Nc1cc2ccc(O)cc2s1)Nc1ccc(Br)cc1F	69.5%
Cc1cc(C)c(C(=O)Nc2ccc3c(c2)n(C)c(=O)n3C)c(=O)[nH]1	85.4%
COC(=O)CCC(=O)Nc1sc(C)c(C)c1C(N)=O	> 99.9%

Set 2 — read-out: enzyme activity; action: inhibitor; concentration: 0.5 µM; reference: control
SMILES: CCN(CC)C(=O)c1ccc(Nc2nc(OCC3CCCCC3)c3[nH]cnc3n2)cc1
target	remaining activity
Ephrin type-A receptor 2 (EPHA2, Homo sapiens, UniProt P29317)	90.6%
Serine/threonine-protein kinase PAK 6 (PAK6, Homo sapiens, UniProt Q9NQU5)	95.5%
Serine/threonine-protein kinase Sgk2 (SGK2, Homo sapiens, UniProt Q9HBY8)	94.4%
Dual specificity protein kinase CLK2 (CLK2, Homo sapiens, UniProt P49760)	40.6%
Dual specificity protein kinase CLK1 (CLK1, Homo sapiens, UniProt P49759)	74.1%
Protein kinase C zeta type (PRKCZ, Homo sapiens, UniProt Q05513)	95.8%
Calcium/calmodulin-dependent protein kinase type 1 (CAMK1, Homo sapiens, UniProt Q14012)	85.6%
SRSF protein kinase 1 (SRPK1, Homo sapiens, UniProt Q96SB4)	91.7%
Tyrosine-protein kinase receptor TYRO3 (TYRO3, Homo sapiens, UniProt Q06418)	90.4%

Set 3 — technique: competition with immobilised ligand; concentration: 1 µM
Compound: CN(c1ccnc(CNc2nc(Nc3ccc4c(c3)CC(=O)N4)ncc2C(F)(F)F)n1)S(C)(=O)=O
target	read-out	remaining binding [%]
Tyrosine-protein kinase ABL1, phosphorylated (ABL1, Homo sapiens, UniProt P00519, Q252H)	cell-free assay	49
Serine/threonine-protein kinase 4 (STK4, Homo sapiens, UniProt Q13043)	cell-free assay	100
Serine/threonine-protein kinase Nek10 (NEK10, Homo sapiens, UniProt Q6ZWH5)	cell-free assay	90
Serine/threonine-protein kinase ULK1 (ULK1, Homo sapiens, UniProt O75385)	binding	1.2
Serine/threonine-protein kinase Nek11 (NEK11, Homo sapiens, UniProt Q8NG66)	cell-free assay	100
Serine/threonine-protein kinase 38 (STK38, Homo sapiens, UniProt Q15208)	cell-free assay	65
Non-receptor tyrosine-protein kinase TNK1 (TNK1, Homo sapiens, UniProt Q13470)	cell-free assay	65
Cyclin-dependent kinase-like 5 (CDKL5, Homo sapiens, UniProt O76039)	cell-free assay	87
Serine/threonine-protein kinase DCLK3 (DCLK3, Homo sapiens, UniProt Q9C098)	cell-free assay	43
Dual specificity protein kinase CLK1 (CLK1, Homo sapiens, UniProt P49759)	cell-free assay	4.4
Homeodomain-interacting protein kinase 2 (HIPK2, Homo sapiens, UniProt Q9H2X6)	cell-free assay	54
Ribosomal protein S6 kinase alpha-4, C-terminal kinase domain (RPS6KA4, Homo sapiens, UniProt O75676)	cell-free assay	72
Ephrin type-B receptor 1 (EPHB1, Homo sapiens, UniProt P54762)	cell-free assay	99

Single results of other studies
Compound	medium	endpoint	result
CCC[C@H]1NC(=O)CSC[C@@H](C(=O)OCC)N(C)C(=O)[C@H](CC(C)C)NC(=O)[C@H](C)N(C)C(=O)[C@@H](CC(C)C)NC(=O)[C@H](C)N(C)C(=O)[C@H]2CCCN2C(=O)[C@H](CC(C)C)NC(=O)CN(C)C1=O	hydrocarbon/water	logD	0.18

Some of these lines once more (set 2):
target	remaining activity
Serine/threonine-protein kinase Sgk2 (SGK2, Homo sapiens, UniProt Q9HBY8)	94.4%
Serine/threonine-protein kinase PAK 6 (PAK6, Homo sapiens, UniProt Q9NQU5)	95.5%
Ephrin type-A receptor 2 (EPHA2, Homo sapiens, UniProt P29317)	90.6%
